Experimental data collected from several papers.
Protocols differ between the studies behind these lines.
Sequence of UniProt P53667 (whole entry, looked up): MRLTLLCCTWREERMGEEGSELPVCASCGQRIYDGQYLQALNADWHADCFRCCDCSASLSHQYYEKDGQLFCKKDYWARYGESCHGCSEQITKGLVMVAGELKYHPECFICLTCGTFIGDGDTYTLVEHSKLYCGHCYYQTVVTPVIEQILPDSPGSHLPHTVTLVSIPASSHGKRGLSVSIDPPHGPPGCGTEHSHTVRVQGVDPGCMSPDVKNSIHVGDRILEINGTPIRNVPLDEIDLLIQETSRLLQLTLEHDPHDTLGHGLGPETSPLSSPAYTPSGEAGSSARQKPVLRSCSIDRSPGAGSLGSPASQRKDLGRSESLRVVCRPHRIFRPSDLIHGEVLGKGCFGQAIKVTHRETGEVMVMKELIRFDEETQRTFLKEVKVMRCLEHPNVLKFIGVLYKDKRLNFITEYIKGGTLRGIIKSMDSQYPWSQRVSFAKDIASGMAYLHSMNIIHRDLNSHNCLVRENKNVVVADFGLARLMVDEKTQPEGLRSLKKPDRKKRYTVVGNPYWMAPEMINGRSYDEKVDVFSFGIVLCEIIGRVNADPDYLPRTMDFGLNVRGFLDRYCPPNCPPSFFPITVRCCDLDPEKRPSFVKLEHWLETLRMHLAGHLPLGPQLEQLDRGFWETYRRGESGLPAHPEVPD
Sequence of UniProt Q06418 (whole entry, looked up): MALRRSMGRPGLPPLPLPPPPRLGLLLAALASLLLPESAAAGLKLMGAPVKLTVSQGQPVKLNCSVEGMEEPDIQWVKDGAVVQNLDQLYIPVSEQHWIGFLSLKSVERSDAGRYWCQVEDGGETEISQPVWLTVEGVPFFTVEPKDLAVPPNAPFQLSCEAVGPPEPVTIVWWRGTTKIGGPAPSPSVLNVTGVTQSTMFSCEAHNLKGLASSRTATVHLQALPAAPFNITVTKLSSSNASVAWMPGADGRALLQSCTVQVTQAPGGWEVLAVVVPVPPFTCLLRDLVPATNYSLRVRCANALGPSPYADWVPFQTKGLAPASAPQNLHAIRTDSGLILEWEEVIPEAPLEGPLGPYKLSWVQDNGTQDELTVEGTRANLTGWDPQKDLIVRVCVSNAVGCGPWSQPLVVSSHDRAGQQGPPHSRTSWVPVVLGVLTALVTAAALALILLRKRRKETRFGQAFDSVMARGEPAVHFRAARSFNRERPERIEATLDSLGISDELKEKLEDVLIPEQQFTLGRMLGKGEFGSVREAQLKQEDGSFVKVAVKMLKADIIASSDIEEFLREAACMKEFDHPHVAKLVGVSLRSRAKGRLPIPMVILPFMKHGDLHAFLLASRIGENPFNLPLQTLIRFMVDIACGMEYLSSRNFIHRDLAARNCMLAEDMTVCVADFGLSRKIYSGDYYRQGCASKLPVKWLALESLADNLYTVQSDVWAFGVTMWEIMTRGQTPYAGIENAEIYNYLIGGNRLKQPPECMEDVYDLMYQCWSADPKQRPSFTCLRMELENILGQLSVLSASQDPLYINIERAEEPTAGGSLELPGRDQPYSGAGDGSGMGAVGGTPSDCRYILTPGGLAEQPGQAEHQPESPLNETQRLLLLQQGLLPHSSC
Sequence of UniProt P30530 (whole entry, looked up): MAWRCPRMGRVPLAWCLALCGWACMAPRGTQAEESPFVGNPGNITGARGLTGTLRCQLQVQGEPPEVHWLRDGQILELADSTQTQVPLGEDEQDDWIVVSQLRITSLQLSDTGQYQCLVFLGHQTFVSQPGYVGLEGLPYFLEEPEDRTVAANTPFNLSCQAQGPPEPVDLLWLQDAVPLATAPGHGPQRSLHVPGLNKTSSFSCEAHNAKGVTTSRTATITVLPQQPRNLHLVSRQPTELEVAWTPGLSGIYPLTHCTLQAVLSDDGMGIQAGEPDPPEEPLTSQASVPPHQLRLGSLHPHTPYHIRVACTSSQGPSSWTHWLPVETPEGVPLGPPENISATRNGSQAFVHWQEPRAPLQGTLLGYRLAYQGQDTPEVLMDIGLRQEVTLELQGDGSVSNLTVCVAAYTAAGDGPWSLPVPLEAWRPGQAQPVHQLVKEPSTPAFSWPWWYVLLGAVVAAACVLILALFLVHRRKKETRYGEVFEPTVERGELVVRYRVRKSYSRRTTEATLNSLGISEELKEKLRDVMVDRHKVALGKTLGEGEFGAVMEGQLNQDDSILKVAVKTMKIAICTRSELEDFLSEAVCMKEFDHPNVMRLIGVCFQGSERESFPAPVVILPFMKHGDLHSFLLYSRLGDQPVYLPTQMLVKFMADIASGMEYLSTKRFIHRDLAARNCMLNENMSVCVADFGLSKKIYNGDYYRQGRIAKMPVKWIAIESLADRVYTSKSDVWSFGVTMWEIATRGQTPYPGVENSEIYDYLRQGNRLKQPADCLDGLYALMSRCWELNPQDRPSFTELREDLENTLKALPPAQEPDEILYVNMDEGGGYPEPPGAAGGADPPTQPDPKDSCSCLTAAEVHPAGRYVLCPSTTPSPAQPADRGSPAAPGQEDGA

Cc1ccc(Oc2ccc(NC(=O)CNc3ccccc3N3CCCC3)cc2)cc1 — EC50 (Plasmodium falciparum; parasite growth; 3D7; 72 h, blood stage): > 10 µM
COc1ccc2[nH]ccc2c1 — EC50 (Cryptosporidium parvum; parasite growth; HCT-8; 24 h, intracellular): 686 µM
CN(CC(=O)Nc1ccc(N(C)c2ccc(Cl)c(F)c2)cc1)c1ccccc1N1CCCC1=O — EC50 (Plasmodium falciparum; parasite growth; 3D7; 72 h, blood stage): 0.084 µM
C/C=C/CNc1c2c([nH]c(=O)c1C(=O)OCC)CCC2 — EC50 (Human immunodeficiency virus 1; viral replication, inhibitor; IIIB; 72 h): 39.7 µM
Oc1cccc2cc[nH]c12 — EC50 (Cryptosporidium parvum; parasite growth; HCT-8; 24 h, intracellular): 458 µM
CCCCCCNc1c2c([nH]c(=O)c1C(=O)OCC)CCC2 — EC50 (Human immunodeficiency virus 1; viral replication, inhibitor; IIIB; 72 h): 36.9 µM
CNc1ncc2c(/C=C/C(=O)N3CCC(OC)CC3)nn(Cc3cccc(C(F)(F)F)c3)c2n1 — remaining activity (Tyrosine-protein kinase receptor TYRO3 (TYRO3, Homo sapiens, UniProt Q06418); enzyme activity, inhibitor, radiometric; 1 µM): 88%
CCN(O)N=Nc1ccc(S(=O)(=O)Nc2onc(C)c2C)cc1 — inhibition (ABTS scavenging; 60 µg/mL): 27.9%
COc1ccc(Nc2cnnc3cc(-c4cnc(N5CCN(C)CC5)nc4)ccc23)cc1Cl — EC50 (Trypanosoma cruzi; parasite growth; C2C12; intracellular, amastigote): 6.6 µM
COc1ccc(C(=O)NCc2cc(O)c(O)c(Br)c2)cc1 — EC50 (Porcine epidemic diarrhea virus; viral replication, inhibitor, qPCR; Vero C1008): 3.16 µM
Cc1noc(NS(=O)(=O)c2ccc(N=NN(C)O)cc2)c1C — inhibition (ABTS scavenging; 60 µg/mL): 42.1%
Cc1ccc(N(C)c2ccc(NC(=O)CN(C)c3ccccc3N3CCCC3=O)nc2)cc1 — EC50 (Plasmodium falciparum; parasite growth; 3D7; 72 h, blood stage): 0.101 µM
CN1CCCN(c2ncc(-c3ccc4nncc(Nc5cnccn5)c4c3)cn2)CC1 — EC50 (Trypanosoma cruzi; parasite growth; C2C12; intracellular, amastigote): > 10 µM
CC(=NNC(=O)c1ccccc1)c1ccc(Nc2nnc(-c3ccc(Cl)cc3)c3ccccc23)cc1 — viability (MCF7; cell growth or viability, MTT; 0.312 µM, 24 h): 99.4%
COc1cc(-c2cncc3c2CN(C)Cc2cc(N4CCNCC4)ccc2-3)cc(OC)c1OC — remaining activity (LIM domain kinase 1 (LIMK1, Homo sapiens, UniProt P53667); enzyme activity, inhibitor; 1 µM): 91%
CCOC(=O)c1c(NC(CC)CO)c2c([nH]c1=O)CCC2 (stereo not shown) — EC50 (Human immunodeficiency virus 1; viral replication, inhibitor; IIIB; 72 h): > 100 µM
N#Cc1cccc2cc[nH]c12 — EC50 (Cryptosporidium parvum; parasite growth; HCT-8; 24 h, intracellular): 203 µM
O=C1Nc2ccc(Cl)cc2[C@@](C#CC2CC2)(C(F)(F)F)O1 — EC50 (Human immunodeficiency virus 1; viral replication, inhibitor; IIIB; 72 h): 0.0039 µM
Cc1ccc(N(c2ccc(NC(=O)CN(C)c3ccccc3N3CCCC3=O)cn2)C(C)C)cc1 — EC50 (Plasmodium falciparum; parasite growth; 3D7; 72 h, blood stage): 0.003 µM
CCCCNc1c2c([nH]c(=O)c1C(=O)OCC)CCC2 — EC50 (Human immunodeficiency virus 1; viral replication, inhibitor; IIIB; 72 h): 33.2 µM
N#Cc1ccc2[nH]ccc2c1 — EC50 (Cryptosporidium parvum; parasite growth; HCT-8; 24 h, intracellular): 108 µM
C=CC(=O)N1CCC(COCC(=O)N2CCN(c3nc(-c4cnc(N)nc4C(F)F)nc(N4CCOC[C@@H]4C)n3)CC2)CC1 — remaining binding (Tyrosine-protein kinase receptor UFO (AXL, Homo sapiens, UniProt P30530); binding, competition with immobilised ligand; 1 µM): 98%
COc1cccc2[nH]ccc12 — EC50 (Cryptosporidium parvum; parasite growth; HCT-8; 24 h, intracellular): 452 µM
Cc1ccc(N(C)c2ccc(NC(=O)CN(C)c3ccc(F)cc3N3CCCC3=O)cc2)cc1 — EC50 (Plasmodium falciparum; parasite growth; 3D7; 72 h, blood stage): 0.016 µM
COc1cc(CNC(=O)c2ccccc2C)cc(Br)c1OC — EC50 (Porcine epidemic diarrhea virus; viral replication, inhibitor, qPCR; Vero C1008): 8.68 µM

Repeated from above:
O=C1Nc2ccc(Cl)cc2[C@@](C#CC2CC2)(C(F)(F)F)O1 — EC50 (Human immunodeficiency virus 1; viral replication, inhibitor; IIIB; 72 h): 0.0039 µM
CCN(O)N=Nc1ccc(S(=O)(=O)Nc2onc(C)c2C)cc1 — inhibition (ABTS scavenging; 60 µg/mL): 27.9%
CC(=NNC(=O)c1ccccc1)c1ccc(Nc2nnc(-c3ccc(Cl)cc3)c3ccccc23)cc1 — viability (MCF7; cell growth or viability, MTT; 0.312 µM, 24 h): 99.4%
